Published values from different studies.
Each line is one published result; not all experiments were run side by side. Several values in a cell are separate wells, animals, samples, runs or records. ± gives the spread as reported.
MAPK8: Mitogen-activated protein kinase 8 (MAPK8, Homo sapiens, UniProt P45983)
UniProt P45983, sequence (whole entry, looked up): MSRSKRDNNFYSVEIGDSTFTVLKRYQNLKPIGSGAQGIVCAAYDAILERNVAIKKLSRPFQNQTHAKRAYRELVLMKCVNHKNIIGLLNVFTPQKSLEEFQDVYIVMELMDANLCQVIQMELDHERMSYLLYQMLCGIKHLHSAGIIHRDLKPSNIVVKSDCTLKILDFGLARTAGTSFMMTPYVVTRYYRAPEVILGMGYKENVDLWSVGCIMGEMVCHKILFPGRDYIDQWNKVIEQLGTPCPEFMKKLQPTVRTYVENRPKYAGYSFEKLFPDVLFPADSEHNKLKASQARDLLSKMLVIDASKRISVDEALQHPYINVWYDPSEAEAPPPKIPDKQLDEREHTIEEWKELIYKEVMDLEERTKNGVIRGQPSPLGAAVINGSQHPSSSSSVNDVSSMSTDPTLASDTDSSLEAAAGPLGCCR
CASP10: Caspase-10 (CASP10, Homo sapiens, UniProt Q92851)
UniProt Q92851, sequence (whole entry, looked up): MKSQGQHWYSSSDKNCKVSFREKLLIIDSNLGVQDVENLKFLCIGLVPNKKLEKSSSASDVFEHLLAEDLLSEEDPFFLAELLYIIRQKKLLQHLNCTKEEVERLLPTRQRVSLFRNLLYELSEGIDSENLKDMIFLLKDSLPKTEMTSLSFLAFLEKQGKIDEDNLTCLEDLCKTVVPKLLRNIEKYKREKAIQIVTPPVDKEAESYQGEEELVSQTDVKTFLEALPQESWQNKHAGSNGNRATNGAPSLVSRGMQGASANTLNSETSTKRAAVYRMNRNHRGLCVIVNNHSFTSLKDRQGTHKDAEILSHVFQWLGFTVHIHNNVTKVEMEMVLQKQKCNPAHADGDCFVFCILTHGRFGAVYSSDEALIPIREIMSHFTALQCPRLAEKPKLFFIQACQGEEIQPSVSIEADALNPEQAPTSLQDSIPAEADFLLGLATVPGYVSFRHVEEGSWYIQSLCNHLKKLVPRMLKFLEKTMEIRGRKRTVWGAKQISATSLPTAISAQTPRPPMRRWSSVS
DCPS: m7GpppX diphosphatase (DCPS, Homo sapiens, UniProt Q96C86)
UniProt Q96C86, sequence (whole entry, looked up): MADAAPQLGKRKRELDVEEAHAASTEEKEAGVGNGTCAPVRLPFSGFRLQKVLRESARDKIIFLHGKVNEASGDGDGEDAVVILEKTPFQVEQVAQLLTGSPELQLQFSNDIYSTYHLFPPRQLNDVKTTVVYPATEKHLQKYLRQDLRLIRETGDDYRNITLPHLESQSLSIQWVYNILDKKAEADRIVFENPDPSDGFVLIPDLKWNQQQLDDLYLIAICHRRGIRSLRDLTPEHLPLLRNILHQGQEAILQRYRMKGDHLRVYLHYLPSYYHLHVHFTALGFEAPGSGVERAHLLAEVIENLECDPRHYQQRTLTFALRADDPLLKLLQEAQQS
CASP8: Caspase-8 (CASP8, Homo sapiens, UniProt Q14790)
UniProt Q14790, sequence (whole entry, looked up): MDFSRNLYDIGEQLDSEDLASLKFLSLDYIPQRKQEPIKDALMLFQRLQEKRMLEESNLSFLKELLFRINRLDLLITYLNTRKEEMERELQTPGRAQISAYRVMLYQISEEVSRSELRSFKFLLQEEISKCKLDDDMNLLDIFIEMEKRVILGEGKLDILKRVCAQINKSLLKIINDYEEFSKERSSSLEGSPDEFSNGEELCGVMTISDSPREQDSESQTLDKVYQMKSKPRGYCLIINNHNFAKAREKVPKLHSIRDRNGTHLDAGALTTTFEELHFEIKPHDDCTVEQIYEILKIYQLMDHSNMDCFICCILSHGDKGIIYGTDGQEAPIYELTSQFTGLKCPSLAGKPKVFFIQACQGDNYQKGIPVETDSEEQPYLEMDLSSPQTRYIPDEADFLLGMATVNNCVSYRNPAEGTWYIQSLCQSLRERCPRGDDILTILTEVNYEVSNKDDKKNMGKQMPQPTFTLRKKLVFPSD
ADRA1A: Alpha-1A adrenergic receptor (ADRA1A, Homo sapiens, UniProt P35348)
TARDBP aggregated: TAR DNA-binding protein 43, aggregated (TARDBP, Homo sapiens, UniProt Q13148)
MAPT PHF6* peptide: Microtubule-associated protein tau, PHF6* peptide (MAPT, Homo sapiens, UniProt P10636)
UniProt Q9UPU5, sequence (whole entry, looked up): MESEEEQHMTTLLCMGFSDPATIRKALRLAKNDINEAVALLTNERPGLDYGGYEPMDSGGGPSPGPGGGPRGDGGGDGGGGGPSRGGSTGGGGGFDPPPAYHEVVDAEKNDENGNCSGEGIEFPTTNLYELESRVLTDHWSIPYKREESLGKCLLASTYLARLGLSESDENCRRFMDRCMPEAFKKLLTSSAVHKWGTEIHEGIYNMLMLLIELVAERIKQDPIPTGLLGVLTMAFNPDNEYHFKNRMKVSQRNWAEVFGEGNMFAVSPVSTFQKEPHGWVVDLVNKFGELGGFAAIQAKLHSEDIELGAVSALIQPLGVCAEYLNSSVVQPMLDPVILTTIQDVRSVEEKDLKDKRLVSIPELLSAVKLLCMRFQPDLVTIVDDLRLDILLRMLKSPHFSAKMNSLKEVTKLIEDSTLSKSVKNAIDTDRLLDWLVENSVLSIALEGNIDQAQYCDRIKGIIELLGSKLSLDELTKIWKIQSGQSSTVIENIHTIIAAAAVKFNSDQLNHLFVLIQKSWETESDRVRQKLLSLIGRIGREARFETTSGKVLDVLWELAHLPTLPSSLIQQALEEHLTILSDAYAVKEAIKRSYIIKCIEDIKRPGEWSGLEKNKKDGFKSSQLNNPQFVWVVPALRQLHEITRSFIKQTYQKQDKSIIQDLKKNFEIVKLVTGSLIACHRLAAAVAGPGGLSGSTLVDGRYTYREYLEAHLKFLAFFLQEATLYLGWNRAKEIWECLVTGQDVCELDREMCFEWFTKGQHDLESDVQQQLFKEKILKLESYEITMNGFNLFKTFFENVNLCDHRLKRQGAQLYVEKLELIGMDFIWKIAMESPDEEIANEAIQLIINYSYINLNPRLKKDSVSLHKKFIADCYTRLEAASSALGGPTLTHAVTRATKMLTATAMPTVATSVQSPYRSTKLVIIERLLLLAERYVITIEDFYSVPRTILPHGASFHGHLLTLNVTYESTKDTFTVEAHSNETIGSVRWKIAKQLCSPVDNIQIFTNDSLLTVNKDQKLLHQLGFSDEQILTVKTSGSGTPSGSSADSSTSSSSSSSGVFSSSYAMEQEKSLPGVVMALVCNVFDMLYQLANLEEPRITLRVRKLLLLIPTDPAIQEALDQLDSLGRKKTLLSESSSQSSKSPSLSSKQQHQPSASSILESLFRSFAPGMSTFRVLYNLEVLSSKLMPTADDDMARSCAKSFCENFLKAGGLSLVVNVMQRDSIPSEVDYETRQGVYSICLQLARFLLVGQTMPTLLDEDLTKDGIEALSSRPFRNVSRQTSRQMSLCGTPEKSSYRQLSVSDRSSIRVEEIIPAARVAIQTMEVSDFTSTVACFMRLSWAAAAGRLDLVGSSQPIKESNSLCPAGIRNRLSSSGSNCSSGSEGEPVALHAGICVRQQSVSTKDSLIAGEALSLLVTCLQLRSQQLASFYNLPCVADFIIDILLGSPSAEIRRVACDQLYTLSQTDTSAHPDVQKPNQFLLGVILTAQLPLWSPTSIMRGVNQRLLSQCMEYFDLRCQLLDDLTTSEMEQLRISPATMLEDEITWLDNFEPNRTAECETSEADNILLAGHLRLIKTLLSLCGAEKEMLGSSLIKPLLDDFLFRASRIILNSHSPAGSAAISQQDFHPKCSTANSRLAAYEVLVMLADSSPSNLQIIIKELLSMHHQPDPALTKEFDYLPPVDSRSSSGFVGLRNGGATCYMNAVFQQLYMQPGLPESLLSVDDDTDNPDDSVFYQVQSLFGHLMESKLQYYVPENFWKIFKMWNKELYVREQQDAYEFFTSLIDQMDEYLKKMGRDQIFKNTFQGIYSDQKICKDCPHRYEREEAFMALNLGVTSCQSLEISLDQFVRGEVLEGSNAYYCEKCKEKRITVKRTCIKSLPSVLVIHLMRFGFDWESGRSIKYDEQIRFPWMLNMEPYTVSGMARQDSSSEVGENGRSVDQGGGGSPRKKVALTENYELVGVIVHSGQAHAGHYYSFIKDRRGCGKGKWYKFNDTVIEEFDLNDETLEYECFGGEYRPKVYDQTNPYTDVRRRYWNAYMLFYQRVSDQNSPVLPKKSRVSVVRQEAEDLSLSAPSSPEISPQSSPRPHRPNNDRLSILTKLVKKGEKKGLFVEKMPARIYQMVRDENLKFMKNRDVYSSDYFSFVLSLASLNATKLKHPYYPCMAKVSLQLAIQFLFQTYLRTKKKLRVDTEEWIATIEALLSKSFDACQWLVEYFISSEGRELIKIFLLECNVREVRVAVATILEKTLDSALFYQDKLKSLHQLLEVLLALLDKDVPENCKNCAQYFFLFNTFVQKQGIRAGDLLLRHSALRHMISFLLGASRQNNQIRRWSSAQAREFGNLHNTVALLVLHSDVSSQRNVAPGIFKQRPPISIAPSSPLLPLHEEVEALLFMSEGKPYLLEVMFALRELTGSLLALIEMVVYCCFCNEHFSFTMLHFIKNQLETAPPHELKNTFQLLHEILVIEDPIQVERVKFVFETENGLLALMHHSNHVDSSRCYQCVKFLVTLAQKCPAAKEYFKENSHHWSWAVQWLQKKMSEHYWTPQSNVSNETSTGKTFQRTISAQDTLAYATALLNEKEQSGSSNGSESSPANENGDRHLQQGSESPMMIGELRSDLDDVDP
UniProt Q92633, sequence (whole entry, unmodified, looked up): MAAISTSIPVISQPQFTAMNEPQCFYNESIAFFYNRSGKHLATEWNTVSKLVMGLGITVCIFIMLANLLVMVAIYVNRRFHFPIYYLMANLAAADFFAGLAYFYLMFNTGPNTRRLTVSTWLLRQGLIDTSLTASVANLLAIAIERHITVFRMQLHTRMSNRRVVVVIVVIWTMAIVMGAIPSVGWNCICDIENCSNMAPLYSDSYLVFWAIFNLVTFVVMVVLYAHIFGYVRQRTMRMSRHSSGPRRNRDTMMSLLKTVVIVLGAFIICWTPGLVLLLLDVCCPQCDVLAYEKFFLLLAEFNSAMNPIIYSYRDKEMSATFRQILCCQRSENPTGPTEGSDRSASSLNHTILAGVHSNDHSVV
UniProt P24539, sequence (whole entry, looked up): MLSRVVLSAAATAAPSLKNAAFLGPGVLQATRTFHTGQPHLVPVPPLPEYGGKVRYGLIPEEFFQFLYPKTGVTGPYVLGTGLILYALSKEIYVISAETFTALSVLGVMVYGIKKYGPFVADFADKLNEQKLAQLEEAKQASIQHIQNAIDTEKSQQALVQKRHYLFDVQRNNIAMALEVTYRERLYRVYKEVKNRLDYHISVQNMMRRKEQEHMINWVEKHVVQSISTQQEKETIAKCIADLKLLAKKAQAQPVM

Structure (SMILES)	target	test	test system	setting	scale	endpoint	result
CCCCCC(O)/C=C/C=O (stereo not shown)	Enoyl-CoA delta isomerase 2 (ECI2, Homo sapiens, UniProt O75521)	competitive isoTOP-ABPP, measured: PECI cysteine peptide	proteome, soluble, MDA-MB-231	100 µM, with: iodoacetamide probe	relative to: DMSO over compound-treated, higher = stronger cysteine blockade	isoTOP-ABPP competition ratio	1.7
C[Si](C)(C)C[C@@H](CN)CC(=O)O	GALR2 (Homo sapiens, UniProt O43603)	enzyme activity, inhibitor	–	75 µM	–	inhibition	-10%
COC(=O)[C@@]1(C)C=C(C(=O)Nc2cccc(C(=O)Nc3ccc(Nc4nccc(-c5cccnc5)n4)c(C)c3)c2)C(=O)CC1	MAPK8	enzyme activity, inhibitor	–	0.5487 µM, 6 h, unit not given, with: GSH 10 mM pre-incubation	relative to: vehicle	remaining activity	0.0886
CC[C@H](C)[C@H](NC(C)=O)C(=O)N[C@@H](CCC(=O)O)C(=O)N[C@H](C(=O)N[C@@H](CC(=O)O)C(=O)COC(=O)c1c(C)cccc1C)[C@@H](C)O	CASP10	enzyme activity, inhibitor	–	–	–	kinact/KI	255000 M⁻¹ s⁻¹
CC(C)[C@@H]1NC(=O)[C@H](Cc2ccccc2)NC(=O)CSC[C@@H](C(N)=O)NC(=O)[C@H](CCC(=O)O)NC(=O)[C@H](CO)NC(=O)[C@H](Cc2c[nH]c3cccc(Cl)c23)NC(=O)[C@H](C2CCCCC2)NC(=O)[C@H](C(C)C)NC(=O)[C@H](Cc2ccc(O)cc2)NC(=O)[C@H](CC(=O)O)NC(=O)[C@H](Cc2c[nH]c3ccccc23)NC(=O)[C@H](Cc2ccc(N)nc2)NC(=O)[C@H](Cc2c[nH]c3ccc(Cl)cc23)NC(=O)[C@H](CCC(=O)O)NC1=O	Interleukin-1 receptor-like 2 (IL1RL2, Homo sapiens, UniProt Q9HB29)	reporter gene (SEAP), inhibitor, HEK-Blue IL-36R reporter	HEK-Blue IL-36R cells	33.33 µM, 6 h, with: IL-36β 1 ng/mL	–	remaining activity	25.7%
C[n+]1cn([C@@H]2O[C@H](COP(=O)(O)OP(=O)([O-])OP(=O)(O)O)[C@@H](O)[C@H]2O)c2nc(N)nc(O)c21	DCPS	substrate, HPLC	–	concentration not given, 15 min	–	hydrolysis	12.1 ± 0.9%
CC[C@H](C)[C@@H]1NC(=O)[C@H](Cc2ccccc2)NC(=O)[C@H](CCC(=O)O)NC(=O)[C@H](CCCNC(=N)N)NC(=O)CNC(=O)[C@@H](NC(=O)[C@H](CC(C)C)NC(=O)[C@H](CCCNC(=N)N)NC(=O)[C@@H](NC(=O)CNC(=O)[C@H](Cc2ccc(O)cc2)NC(=O)[C@@H]2CCCN2C(=O)[C@H](C)NC(=O)[C@H](C)NC(=O)[C@@H](N)CCCNC(=N)N)C(C)C)CSSC[C@@H]2NC(=O)[C@@H](NC(=O)[C@H](CO)NC(=O)[C@H](CO)NC(=O)[C@H](CO)NC(=O)[C@H](CC(C)C)NC(=O)CNC(=O)[C@H](C)NC(=O)[C@H](CC(C)C)NC(=O)[C@@H](NC(=O)[C@@H](N)CC(=O)O)C(C)C)CSSC[C@H](NC(=O)CNC(=O)[C@H](Cc3c[nH]c4ccccc34)NC(=O)[C@H](CCCCN)NC2=O)C(=O)N[C@@H](CO)C(=O)N[C@@H](CCCCN)C(=O)N[C@@H](CO)C(=O)N[C@@H](CCC(=O)O)C(=O)N[C@@H]([C@@H](C)CC)C(=O)N[C@@H](CO)C(=O)N[C@@H](CO)C(=O)N[C@@H](CC(C)C)C(=O)N[C@H](C(=O)O)CSSC[C@@H](C(=O)NCC(=O)NCC(=O)N[C@@H](CO)C(=O)N[C@@H](CCCNC(=N)N)C(=O)N[C@@H](Cc2c[nH]c3ccccc23)C(=O)O)NC(=O)[C@H]([C@@H](C)O)NC(=O)[C@H](Cc2ccccc2)NC(=O)[C@H]([C@@H](C)CC)NC(=O)[C@H](C(C)C)NC(=O)[C@H](C)NC(=O)[C@H](CCCNC(=N)N)NC1=O	RXFP3 (Homo sapiens, UniProt Q9NSD7, L248A)	–	HEK-293T	–	relative to: wild type	Emax	64.8 ± 6.43%
CCCCCCCCCCCCCCCC(=O)NCCCC[C@H](NC(=O)[C@H](CCC(=O)O)NC(=O)[C@H](Cc1ccc(O)cc1)NC(=O)[C@H](CCC(=O)O)NC(=O)COCC(=O)NCCCOCCOCCOCCCNC(=O)[C@H](Cc1c[nH]c2ccccc12)NC(=O)[C@H](CCCCN)NC(=O)[C@H](C)NC(=O)[C@H](CCCCNC(=N)N)NC(=O)[C@H](CCC(N)=O)NC(=O)[C@H](Cc1c[nH]cn1)NC(=O)[C@H](CCSC)NC(=O)[C@H](CC(C)C)NC(=O)[C@H](CCC(N)=O)NC(=O)[C@@H](NC(=O)[C@H](CCC(=O)O)NC(=O)C(C)(C)NC(=O)[C@@H](NC(=O)C(C)(C)N)C(C)C)[C@@H](C)CC)C(=O)N[C@@H](CCC(=O)O)C(=O)N[C@@H](Cc1ccc(O)cc1)C(=O)N[C@@H](CCC(=O)O)C(N)=O	PTH1R (Homo sapiens, UniProt Q03431)	agonist	Saos-2 with cAMP reporter	100 nM, 90 min, washout after 30 min ligand	higher = more cAMP	cAMP luminescence AUC	3100 a.u.
C[n+]1cn([C@@H]2O[C@H](COP(=O)(O)OP(=O)([O-])C(F)(F)P(=O)(O)O)[C@@H](O)[C@H]2O)c2nc(N)nc(O)c21	DCPS	substrate, HPLC	–	concentration not given, 15 min	–	hydrolysis	2.9 ± 0.2%
CC(=O)N[C@@H](Cc1ccc(O)cc1)C(=O)N[C@@H](CCCCN)C(=O)N[C@@H](C)C(=O)N[C@@H](CC(=O)O)C(=O)COC(=O)c1c(C)cccc1C	CASP8	enzyme activity, inhibitor	–	–	–	kinact/KI	32000 M⁻¹ s⁻¹
CCN(CC)C(CO)c1cccc2c(C)c(C)oc12 (stereo not shown)	LPAR1 (Homo sapiens, UniProt Q92633, W271A)	G-protein dissociation, agonist, NanoBiT	HEK-293T	1 nM, W271A mutant	relative to: baseline luminescence	fold change	1.03 and 0.996 and 0.993 and 1 and 1.04
C=CS(=O)(=O)c1ccc(Nc2nc(OCC3CCCCC3)c3nc[nH]c3n2)cc1	Gasdermin-D (GSDMD, Homo sapiens, UniProt P57764)	thermal stability, DSF	–	20 µM	–	ΔTm	9 °C
N=C(N)NCCS(=O)(=O)O	SLC6A6 (Homo sapiens, UniProt P31641, G62A)	binding, microscale thermophoresis	–	61 nM, room temperature, with: 50 nM labelled protein	higher = more binding	normalised MST signal	0.0314
Cc1cc(C)cc(COc2cc3c(cc2OCc2cc(C)cc(C)c2)C2CC(O)(Cc4cn(CCOCCOCCNC(=O)CCCCC5SCC6NC(=O)NC65)nn4)CC(C)N2CC3)c1 (stereo not shown)	ATP synthase peripheral stalk subunit b, mitochondrial (Homo sapiens, UniProt P24539)	biotinylated probe pull-down, measured: ATP5PB	–	10 µM probe	relative to: heavy over light	SILAC ratio	1.83
O=c1cc(NCCO)c2ccccc2o1	ADRA1A	calcium mobilization, agonist	COS-7	500 µM	relative to: 3 µM ionomycin	agonist activity	8.97 ± 2.04%
CCCCCCCCCCCCC/C=C/C=O	Trafficking protein particle complex subunit 5 (TRAPPC5, Homo sapiens, UniProt Q8IUR0)	competitive isoTOP-ABPP, measured: TRAPPC5 cysteine peptide	Ramos soluble proteome	100 µM, with: iodoacetamide probe	relative to: DMSO over compound-treated, higher = stronger cysteine blockade	isoTOP-ABPP competition ratio	1.1
CC(=O)N[C@@H](CC(C)C)C(=O)N[C@@H](Cc1ccccc1)C(=O)N[C@@H](CO)C(=O)N[C@@H](CC(=O)O)C(=O)COC(=O)c1c(C)cccc1C	CASP10	enzyme activity, inhibitor	–	–	–	kinact/KI	355000 M⁻¹ s⁻¹

Structure (SMILES)	target	test	test system	setting	scale	endpoint	result
CN1CCC[C@@H]1C(=O)N[C@@H](Cc1ccc(-c2ccccc2)cc1)B(O)O	20S proteasome (Plasmodium falciparum, UniProt A0A5K1K7U1+Q8IJT1)	inhibitor, progress curve	–	–	–	kobs/[I]	111000 M⁻¹ s⁻¹
CC(=O)N[C@@H](Cc1ccccc1)C(=O)N[C@@H](CC(=O)O)C(=O)N[C@@H](CCC(=O)O)C(=O)N1CCC[C@H]1C(=O)N[C@@H](CC(=O)O)C(=O)COC(=O)c1c(C)cccc1C	CASP10	enzyme activity, inhibitor	–	–	–	kinact/KI	177000 M⁻¹ s⁻¹
CC1(C)C[C@@H](Nc2cccc(-c3sc(C(=O)O)c(OCC(=O)O)c3Cl)c2)CCN1S(=O)(=O)Cc1cccc(NC(=O)CN2CCC(c3ccc4c(c3)oc(=O)n4C3CCC(=O)NC3=O)CC2)c1 (stereo partly shown)	PTPN2 (Homo sapiens, UniProt P17706)	degrader, bio-layer interferometry	–	500 nM, biotinylated protein immobilised	higher = more binding	BLI binding response	0.506 a.u. and 0.491 a.u.
O=c1c(-c2ccc(Cl)c(OCCN3CCOCC3)c2)coc2cc(O)ccc12	HSD3B1 (Homo sapiens, UniProt P14060)	[3H]-DHEA conversion	LNCaP	0.1 µM, normalized to protein, unit not given	relative to: vehicle	DHEA metabolism	1.86
Cc1cn(CC(=O)N(CC(=O)N[C@H]2CCC[C@@H]2N(CC(=O)N[C@H]2COC[C@@H]2N(CC(=O)N[C@H]2COC[C@@H]2N(CC(=O)N[C@H]2COC[C@@H]2N(CC(=O)NCCOCCOCC(N)=O)C(=O)Cn2cnc3c(N)ncnc32)C(=O)Cn2cc(C)c(=O)[nH]c2=O)C(=O)Cn2cnc3c(N)ncnc32)C(=O)Cn2cnc3c(=O)[nH]c(N)nc32)[C@H]2CCC[C@@H]2NC(=O)CN(C(=O)Cn2cnc3c(=O)[nH]c(N)nc32)[C@H]2CCC[C@@H]2NC(=O)CN(C(=O)Cn2cc(C)c(=O)[nH]c2=O)[C@H]2COC[C@@H]2NC(=O)CN(C(=O)Cn2cnc3c(N)ncnc32)[C@H]2COC[C@@H]2NC(=O)CN(C(=O)Cn2cnc3c(=O)[nH]c(N)nc32)[C@H]2COC[C@@H]2N)c(=O)[nH]c1=O	complementary DNA	duplex formation, UV melting curve fit	PBS	1 µM, fit parameter α 0.5	–	Tm	82.6 ± 0.2 °C
N#CN1CC[C@H](C(=O)Nc2nc3c(s2)CN(C(=O)Cn2cc(COCCOCCOCCOCCNC(=O)CCCC[C@@H]4SC[C@@H]5NC(=O)N[C@@H]54)nn2)CC3)C1	USP24 (Homo sapiens, UniProt Q9UPU5)	probe binding, affinity probe, neutravidin pull-down LC-MS/MS	HEK293T, cell lysate	5 µM, 1 h, single replicate, unit not given	higher = more pulled down	iBAQ abundance	1.25e+06 and 378000 and 1.12e+06
O=C1c2sc(-c3ccc(N4CCC(CO)CC4)nc3F)nc2CCN1c1cccnc1	TARDBP aggregated	radioligand binding	control brain sarkosyl-insoluble extract	6.91 nM	–	specific binding	-0.006 nM
CC(=O)N1C[C@H](O)C[C@H]1C(=O)N[C@H](C(=O)N[C@@H](CO)C(=O)N[C@@H](CC(=O)O)C(=O)COC(=O)c1c(C)cccc1C)C(C)C	CASP10	enzyme activity, inhibitor	–	–	–	kinact/KI	63000 M⁻¹ s⁻¹
O=C(CC1CC2CCC1C2)NCCNC(=O)Cn1c(=O)[nH]c(=O)c2ccccc21 (stereo not shown)	PARP1 (Homo sapiens, UniProt P09874)	enzyme activity, inhibitor	–	5 nM	–	inhibition	0%
C#CCOC(=O)[C@]1(C)C=C(C(=O)OC(C)(C)C)C(=O)CC1	MAPK8	enzyme activity, D-SENSOR	–	44.44 µM, single replicate	–	normalized kinase activity	0.585 and 0.639 and 0.628
CC(=O)N[C@H](C(=O)N[C@@H](CCCCN)C(=O)N[C@@H](CCC(N)=O)C(=O)N[C@@H](CC(=O)O)C(=O)COC(=O)c1c(C)cccc1C)C(C)C	CASP8	enzyme activity, inhibitor	–	–	–	kinact/KI	162000 M⁻¹ s⁻¹
CC[C@H](C)[C@H](NC(=O)[C@H](CCC(N)=O)NC(=O)[C@@H](NC(=O)[C@@H]1CCCN1[C@@H]1CN(C(=O)[C@H](CCCCN)NC(=O)[C@H](CC(N)=O)NC(=O)[C@@H](NC(=O)[C@@H](NC(=O)[C@H](CCC(N)=O)NC(=O)[C@@H](N)C(C)C)[C@@H](C)CC)[C@@H](C)CC)CC[C@H]1NS(=O)(=O)c1ccc(C)cc1)C(C)C)C(=O)N[C@H](C(=O)N[C@@H](Cc1ccc(O)cc1)C(=O)N[C@@H](CCCCN)C(N)=O)C(C)C	MAPT PHF6* peptide	fibril formation, ThT fluorescence	–	0.1-fold of peptide, pH 7.4, with: Ac-PHF6* 25 µM, heparin	relative to: untreated	ThT fluorescence	12 ± 2%
COc1ncc2nc(C)n(Cc3ncc(S(N)(=O)=O)cc3F)c2c1-c1ccccc1	ADRA1A	agonist, cell-based	–	10 µM	–	activation	4.67%
CC(=O)N[C@@H](CC(C)C)C(=O)N[C@H](C(=O)N[C@@H](C)C(=O)N[C@@H](CC(=O)O)C(=O)COC(=O)c1c(C)cccc1C)C(C)(C)C	CASP10	enzyme activity, inhibitor	–	–	–	kinact/KI	350000 M⁻¹ s⁻¹
O=C1c2sc(-c3ccc(N4CCC(F)C4)nc3F)nc2CCN1c1cccnc1 (stereo not shown)	TARDBP aggregated	saturation autoradiography	human, FTLD-TDP type A brain sections	2.87 nM	–	specific binding	39.6 nM
CC(=O)N[C@@H](CC(C)C)C(=O)N[C@@H](CCC(=O)O)C(=O)N[C@@H](CCC1CCCCC1)C(=O)N[C@@H](CC(=O)O)C(=O)COC(=O)c1c(C)cccc1C	CASP8	enzyme activity, inhibitor	–	–	–	kinact/KI	1.34e+06 M⁻¹ s⁻¹
CC[C@H](C)[C@H](NC(=O)[C@@H](NC(=O)[C@H](CCCCN)NC(=O)[C@@H](N)[C@@H](C)O)C(C)C)C(=O)N[C@@H](CC(C)C)C(=O)N[C@@H](Cc1c[nH]cn1)C(N)=O	MAPT PHF6* peptide	fibril formation, ThT fluorescence	–	1-fold of peptide, pH 7.4, with: Ac-PHF6* 25 µM, heparin	relative to: untreated	ThT fluorescence	155 ± 2%
